Results of several laboratories.
Numbered parts are unrelated; each lists some results of a single study.
UniProt P10721, sequence (whole entry, unmodified, looked up): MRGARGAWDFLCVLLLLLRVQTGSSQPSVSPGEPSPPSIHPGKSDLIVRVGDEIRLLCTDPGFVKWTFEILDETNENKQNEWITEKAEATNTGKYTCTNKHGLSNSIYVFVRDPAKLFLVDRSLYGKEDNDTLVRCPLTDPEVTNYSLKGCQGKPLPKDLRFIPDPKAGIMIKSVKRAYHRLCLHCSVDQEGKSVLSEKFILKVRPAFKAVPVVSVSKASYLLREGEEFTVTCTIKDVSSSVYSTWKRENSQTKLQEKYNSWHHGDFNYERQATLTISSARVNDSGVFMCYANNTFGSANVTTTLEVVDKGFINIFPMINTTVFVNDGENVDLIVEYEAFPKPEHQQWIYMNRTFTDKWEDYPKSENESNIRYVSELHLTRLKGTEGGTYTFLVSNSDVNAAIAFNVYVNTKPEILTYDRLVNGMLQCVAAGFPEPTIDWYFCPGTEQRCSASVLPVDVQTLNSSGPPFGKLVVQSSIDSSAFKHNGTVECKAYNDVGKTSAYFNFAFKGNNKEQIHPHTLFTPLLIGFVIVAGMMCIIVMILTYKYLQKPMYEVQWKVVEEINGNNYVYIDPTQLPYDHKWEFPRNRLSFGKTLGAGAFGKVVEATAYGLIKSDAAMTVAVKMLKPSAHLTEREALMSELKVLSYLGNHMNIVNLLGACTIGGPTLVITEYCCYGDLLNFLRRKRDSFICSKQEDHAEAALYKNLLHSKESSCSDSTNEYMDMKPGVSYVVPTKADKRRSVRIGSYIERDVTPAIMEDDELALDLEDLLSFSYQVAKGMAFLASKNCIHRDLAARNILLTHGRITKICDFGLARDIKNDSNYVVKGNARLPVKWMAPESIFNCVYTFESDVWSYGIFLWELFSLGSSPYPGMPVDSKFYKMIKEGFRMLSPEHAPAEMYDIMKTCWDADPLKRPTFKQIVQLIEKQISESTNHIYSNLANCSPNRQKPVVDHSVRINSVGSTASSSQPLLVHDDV
UniProt O75676, sequence (whole entry, looked up): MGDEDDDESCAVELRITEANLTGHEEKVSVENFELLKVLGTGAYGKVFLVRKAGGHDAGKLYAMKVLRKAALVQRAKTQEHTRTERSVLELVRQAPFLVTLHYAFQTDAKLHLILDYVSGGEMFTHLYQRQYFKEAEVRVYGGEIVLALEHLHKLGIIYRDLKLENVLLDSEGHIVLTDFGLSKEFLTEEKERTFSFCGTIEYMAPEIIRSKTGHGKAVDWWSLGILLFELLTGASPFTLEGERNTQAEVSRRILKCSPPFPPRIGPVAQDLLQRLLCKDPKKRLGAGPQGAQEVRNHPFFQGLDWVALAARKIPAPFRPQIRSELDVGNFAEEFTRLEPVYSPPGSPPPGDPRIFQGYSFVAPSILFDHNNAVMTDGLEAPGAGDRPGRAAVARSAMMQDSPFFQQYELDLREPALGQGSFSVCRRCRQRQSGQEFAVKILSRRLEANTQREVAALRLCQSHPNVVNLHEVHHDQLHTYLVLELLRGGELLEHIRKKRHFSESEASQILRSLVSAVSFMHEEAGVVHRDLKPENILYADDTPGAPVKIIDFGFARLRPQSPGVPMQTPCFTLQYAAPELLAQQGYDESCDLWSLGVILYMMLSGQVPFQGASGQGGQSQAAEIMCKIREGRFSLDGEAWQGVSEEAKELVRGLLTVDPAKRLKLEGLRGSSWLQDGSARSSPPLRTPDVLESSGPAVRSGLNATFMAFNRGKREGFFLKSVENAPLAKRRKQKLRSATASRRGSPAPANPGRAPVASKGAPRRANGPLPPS
UniProt Q15746, sequence (whole entry, looked up): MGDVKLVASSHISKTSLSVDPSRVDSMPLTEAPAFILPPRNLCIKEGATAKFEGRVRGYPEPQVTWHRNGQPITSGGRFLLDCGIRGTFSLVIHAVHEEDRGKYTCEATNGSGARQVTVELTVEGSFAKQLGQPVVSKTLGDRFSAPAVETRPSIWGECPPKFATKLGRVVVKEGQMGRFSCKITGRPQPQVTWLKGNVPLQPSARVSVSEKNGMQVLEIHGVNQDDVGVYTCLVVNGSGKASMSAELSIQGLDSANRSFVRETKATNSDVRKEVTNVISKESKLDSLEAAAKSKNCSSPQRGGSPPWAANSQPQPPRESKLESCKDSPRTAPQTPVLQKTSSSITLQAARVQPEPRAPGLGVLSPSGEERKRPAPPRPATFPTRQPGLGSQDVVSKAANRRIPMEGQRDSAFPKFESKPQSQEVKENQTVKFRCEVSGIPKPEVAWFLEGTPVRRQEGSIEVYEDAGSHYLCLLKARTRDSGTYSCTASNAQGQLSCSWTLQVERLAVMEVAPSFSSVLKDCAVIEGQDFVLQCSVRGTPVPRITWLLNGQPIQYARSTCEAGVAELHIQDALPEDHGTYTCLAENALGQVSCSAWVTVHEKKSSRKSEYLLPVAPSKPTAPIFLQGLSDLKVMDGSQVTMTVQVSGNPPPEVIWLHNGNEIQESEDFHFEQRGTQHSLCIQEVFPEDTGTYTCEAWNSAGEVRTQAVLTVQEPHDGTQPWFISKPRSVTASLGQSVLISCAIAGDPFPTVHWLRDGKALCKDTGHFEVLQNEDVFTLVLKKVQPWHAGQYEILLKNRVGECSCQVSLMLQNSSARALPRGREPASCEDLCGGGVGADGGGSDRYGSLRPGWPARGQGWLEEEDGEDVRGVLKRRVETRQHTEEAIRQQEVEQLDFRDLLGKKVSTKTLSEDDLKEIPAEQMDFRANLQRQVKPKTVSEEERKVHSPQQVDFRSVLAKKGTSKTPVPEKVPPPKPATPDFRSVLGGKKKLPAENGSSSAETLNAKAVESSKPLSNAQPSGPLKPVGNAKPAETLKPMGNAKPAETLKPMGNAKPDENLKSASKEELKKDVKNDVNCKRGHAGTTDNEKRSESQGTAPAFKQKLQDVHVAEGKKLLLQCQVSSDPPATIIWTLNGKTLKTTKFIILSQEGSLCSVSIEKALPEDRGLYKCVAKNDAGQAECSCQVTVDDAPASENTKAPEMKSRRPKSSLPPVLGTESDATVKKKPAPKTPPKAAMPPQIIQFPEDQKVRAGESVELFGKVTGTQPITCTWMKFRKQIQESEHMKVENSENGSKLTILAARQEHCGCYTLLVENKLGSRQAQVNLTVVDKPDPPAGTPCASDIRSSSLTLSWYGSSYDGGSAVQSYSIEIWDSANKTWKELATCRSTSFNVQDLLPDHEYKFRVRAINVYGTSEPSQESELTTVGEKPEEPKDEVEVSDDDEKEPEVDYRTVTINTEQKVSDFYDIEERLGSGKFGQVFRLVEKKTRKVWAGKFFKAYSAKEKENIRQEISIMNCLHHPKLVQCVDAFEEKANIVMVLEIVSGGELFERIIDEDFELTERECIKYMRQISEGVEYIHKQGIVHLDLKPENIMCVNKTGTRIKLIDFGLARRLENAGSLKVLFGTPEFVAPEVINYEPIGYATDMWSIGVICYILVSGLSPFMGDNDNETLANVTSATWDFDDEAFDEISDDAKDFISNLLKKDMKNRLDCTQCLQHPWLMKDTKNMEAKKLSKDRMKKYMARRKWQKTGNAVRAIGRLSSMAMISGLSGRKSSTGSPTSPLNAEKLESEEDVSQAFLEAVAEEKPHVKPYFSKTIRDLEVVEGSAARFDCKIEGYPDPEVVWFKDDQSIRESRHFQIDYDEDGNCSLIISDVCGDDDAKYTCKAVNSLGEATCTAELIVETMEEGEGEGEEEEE
UniProt Q16832, sequence (whole entry, looked up): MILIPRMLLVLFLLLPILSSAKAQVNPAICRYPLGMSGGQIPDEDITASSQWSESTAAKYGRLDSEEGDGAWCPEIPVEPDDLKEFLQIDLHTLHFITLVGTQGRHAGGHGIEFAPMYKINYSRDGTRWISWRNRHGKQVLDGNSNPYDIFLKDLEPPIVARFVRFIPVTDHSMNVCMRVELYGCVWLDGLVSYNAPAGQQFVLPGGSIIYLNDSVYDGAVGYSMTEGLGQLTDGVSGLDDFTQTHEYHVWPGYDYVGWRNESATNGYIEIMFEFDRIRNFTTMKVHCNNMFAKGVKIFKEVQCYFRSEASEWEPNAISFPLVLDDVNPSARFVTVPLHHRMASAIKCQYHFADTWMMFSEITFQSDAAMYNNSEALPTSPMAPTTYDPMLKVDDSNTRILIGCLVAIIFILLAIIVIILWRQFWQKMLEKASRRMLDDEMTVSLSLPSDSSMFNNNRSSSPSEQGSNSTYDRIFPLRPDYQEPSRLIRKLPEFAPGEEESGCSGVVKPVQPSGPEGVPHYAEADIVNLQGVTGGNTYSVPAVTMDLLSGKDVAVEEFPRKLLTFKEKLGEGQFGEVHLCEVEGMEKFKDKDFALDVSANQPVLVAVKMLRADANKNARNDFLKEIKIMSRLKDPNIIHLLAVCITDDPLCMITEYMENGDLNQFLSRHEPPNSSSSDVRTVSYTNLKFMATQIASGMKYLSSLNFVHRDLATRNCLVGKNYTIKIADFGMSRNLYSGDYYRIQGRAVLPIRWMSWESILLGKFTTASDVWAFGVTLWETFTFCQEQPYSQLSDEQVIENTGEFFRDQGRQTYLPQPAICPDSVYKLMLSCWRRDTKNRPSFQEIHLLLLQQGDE

Set 1 — method: competition with immobilised ligand; tested at: 1 µM; quantity: remaining binding
Structure (SMILES): CC(=O)N1CCC(c2ccc(C(=O)NC3=NCCN3)cc2C(F)(F)F)CC1
Hepatocyte growth factor receptor (MET, Homo sapiens, UniProt P08581); cell-free assay: 100%
Mast/stem cell growth factor receptor Kit (KIT, Homo sapiens, UniProt P10721, A829P); cell-free assay: 100%
Receptor-interacting serine/threonine-protein kinase 1 (RIPK1, Homo sapiens, UniProt Q13546); cell-free assay: 100%
Ribosomal protein S6 kinase alpha-4, C-terminal kinase domain (RPS6KA4, Homo sapiens, UniProt O75676); cell-free assay: 81%
Citron Rho-interacting kinase (CIT, Homo sapiens, UniProt O14578); cell-free assay: 100%
Cyclin-dependent kinase-like 5 (CDKL5, Homo sapiens, UniProt O76039); cell-free assay: 79%
Myosin light chain kinase, smooth muscle (MYLK, Homo sapiens, UniProt Q15746); cell-free assay: 90%
SRSF protein kinase 2 (SRPK2, Homo sapiens, UniProt P78362); cell-free assay: 100%
Serine/threonine-protein kinase PAK 2 (PAK2, Homo sapiens, UniProt Q13177); cell-free assay: 95%
Mast/stem cell growth factor receptor Kit (KIT, Homo sapiens, UniProt P10721, V559D/V654A); cell-free assay: 100%
Ribosomal protein S6 kinase alpha-3, N-terminal kinase domain (RPS6KA3, Homo sapiens, UniProt P51812); cell-free assay: 100%
Mast/stem cell growth factor receptor Kit (KIT, Homo sapiens, UniProt P10721, T670I/V559D); cell-free assay: 100%
Serine/threonine-protein kinase BRSK1 (BRSK1, Homo sapiens, UniProt Q8TDC3); cell-free assay: 100%
Serine/threonine-protein kinase ICK (CILK1, Homo sapiens, UniProt Q9UPZ9); binding: 88%
Serine/threonine-protein kinase 38 (STK38, Homo sapiens, UniProt Q15208); cell-free assay: 85%
RAC-alpha serine/threonine-protein kinase (AKT1, Homo sapiens, UniProt P31749); cell-free assay: 100%
Mast/stem cell growth factor receptor Kit (KIT, Homo sapiens, UniProt P10721, L576P); cell-free assay: 95%
Rho-associated protein kinase 1 (ROCK1, Homo sapiens, UniProt Q13464); cell-free assay: 0.5%
Tyrosine-protein kinase ABL1, phosphorylated (ABL1, Homo sapiens, UniProt P00519, Q252H); cell-free assay: 86%
Mitogen-activated protein kinase kinase kinase 11 (MAP3K11, Homo sapiens, UniProt Q16584); cell-free assay: 100%
Serine/threonine-protein kinase TAO1 (TAOK1, Homo sapiens, UniProt Q7L7X3); cell-free assay: 100%
TRAF2 and NCK-interacting protein kinase (TNIK, Homo sapiens, UniProt Q9UKE5); cell-free assay: 68%
cGMP-dependent protein kinase 1 (PRKG1, Homo sapiens, UniProt Q13976); cell-free assay: 100%

Set 2 — read-out: enzyme activity; action: inhibitor; tested at: 0.5 µM; baseline: control; quantity: remaining activity
Target: Receptor-interacting serine/threonine-protein kinase 2 (RIPK2, Homo sapiens, UniProt O43353)
UniProt O43353, sequence (whole entry, looked up): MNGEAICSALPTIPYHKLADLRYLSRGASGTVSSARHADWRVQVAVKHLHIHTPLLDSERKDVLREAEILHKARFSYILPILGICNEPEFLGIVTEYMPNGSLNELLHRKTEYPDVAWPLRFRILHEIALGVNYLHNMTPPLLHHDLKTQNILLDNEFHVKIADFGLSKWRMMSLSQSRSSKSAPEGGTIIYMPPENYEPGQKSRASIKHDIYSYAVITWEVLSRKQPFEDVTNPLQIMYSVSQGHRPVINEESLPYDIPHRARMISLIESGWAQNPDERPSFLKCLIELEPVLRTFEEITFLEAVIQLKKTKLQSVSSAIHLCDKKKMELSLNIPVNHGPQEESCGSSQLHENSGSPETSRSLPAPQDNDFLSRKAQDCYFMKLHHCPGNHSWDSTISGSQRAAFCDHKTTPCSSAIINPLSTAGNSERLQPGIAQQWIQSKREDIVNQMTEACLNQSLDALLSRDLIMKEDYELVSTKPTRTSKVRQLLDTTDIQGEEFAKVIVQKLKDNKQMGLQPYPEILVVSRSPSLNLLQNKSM
CCN(CC)CCNC(=O)c1c(C)[nH]c(/C=C2\C(=O)Nc3ccc(Cl)cc32)c1C: 84.1%
COc1cc2c(cc1OC)-c1[nH]nc(Nc3cccc(F)c3)c1C2: 76.3%
Cn1nc2c3c(cccc31)C(=O)c1ccccc1-2: 75.7%
CN(C)C[C@H]1CCn2c(c(C3=C(c4cn(C)c5ccccc45)C(=O)NC3=O)c3ccccc32)C1: 94.4%
COc1cc2ncnc(Nc3cccc(Cl)c3)c2cc1OC: 45.4%
CCN(CC)CCNC(=O)c1c(C)[nH]c(/C=C2\C(=O)Nc3ccc(F)cc32)c1C: 104%
COc1cc2ncnc(Nc3ccc(O)c(Br)c3)c2cc1OC: 36.7%
N#C/C(=C\c1ccc(O)c(O)c1)C(=O)NCc1ccccc1: 101%
Cc1nc2cc3nc(-c4cccs4)cnc3cc2n1C: 89.1%
Ic1cccc(CSc2nnc(-c3ccncc3)o2)c1: 86.3%
N#Cc1c(NC(=O)c2cccc3ccccc23)sc2c1CCCC2: 81.3%
O=C(NC(NC(=S)Nc1ccc(F)c([N+](=O)[O-])c1)C(Cl)(Cl)Cl)C(c1ccccc1)c1ccccc1 (stereo not shown): 97.4%
O=C1C(Cl)=C(N2C(=O)CCC2=O)C(=O)c2ccccc21: 84.8%
CCN(CC)C(=O)c1ccc(Nc2nc(OCC3CCCCC3)c3[nH]cnc3n2)cc1: 97.2%
O=c1cc(-c2cccc3c2Sc2ccccc2S3)oc(N2CCOCC2)c1: 114%
Cc1cc2ncc(-c3ccccc3)nc2cc1C: 98.3%
Nc1cccc(-c2cc3c(Oc4cccc(O)c4)ncnc3[nH]2)c1: 30.5%
O=C1c2ccccc2-c2n[nH]c3cccc1c23: 75.3%
c1ccc(-c2cnc(Nc3ccc(OCCN4CCCC4)cc3)s2)cc1: 50.4%
O=C(Nc1cccc(Nc2nccc(Nc3cccc(C(F)(F)F)c3)n2)c1)C1CC1: 81.6%
Cc1cn(-c2cc(NC(=O)c3ccc(C)c(Nc4nccc(-c5cccnc5)n4)c3)cc(C(F)(F)F)c2)cn1: 110%
c1ccc(-c2[nH]ncc2-c2ccnc3ccccc23)nc1: 64.7%
CN([C@@H](Cc1ccc(OS(=O)(=O)c2cccc3cnccc23)cc1)C(=O)N1CCN(c2ccccc2)CC1)S(=O)(=O)c1cccc2cnccc12: 89.4%

Set 3 — tested at: 1 µM; quantity: remaining binding
Compound: COc1ccc2[nH]c3c4[nH]c5ccc(OC)cc5c4c4c(c3c2c1)C(=O)NC4=O
Tyrosine-protein kinase ABL1 (ABL1, Homo sapiens, UniProt P00519); competitive binding, scanMAX; phosphorylated, 1000 nM: 57%
Ribosomal protein S6 kinase alpha-4 (RPS6KA4, Homo sapiens, UniProt O75676); competitive binding scan; C-terminal kinase domain 2: 25%
Dual specificity mitogen-activated protein kinase kinase 7 (MAP2K7, Homo sapiens, UniProt O14733); competitive binding panel, refers to: MKK7; baseline: vehicle: 88%
Cyclin-dependent kinase-like 2 (CDKL2, Homo sapiens, UniProt Q92772); competitive binding panel; baseline: vehicle: 92%
Serine/threonine-protein kinase MRCK gamma (CDC42BPG, Homo sapiens, UniProt Q6DT37); competitive binding panel, refers to: DMPK2; baseline: vehicle: 84%
NUAK family SNF1-like kinase 2 (NUAK2, Homo sapiens, UniProt Q9H093); competitive binding; SNARK: 59%
Tyrosine-protein kinase BTK (BTK, Homo sapiens, UniProt Q06187); competitive binding panel; baseline: vehicle: 74%
Discoidin domain-containing receptor 2 (DDR2, Homo sapiens, UniProt Q16832); competitive binding panel; baseline: vehicle: 72%
Tyrosine-protein kinase receptor UFO (AXL, Homo sapiens, UniProt P30530); competitive binding panel; baseline: vehicle: 30%
NUAK family SNF1-like kinase 1 (NUAK1, Homo sapiens, UniProt O60285); competitive binding panel, refers to: ARK5; baseline: vehicle: 25%
Activin receptor type-1-like (ACVRL1, Homo sapiens, UniProt P37023); competitive binding panel; baseline: vehicle: 100%
Serine/threonine-protein kinase 36 (STK36, Homo sapiens, UniProt Q9NRP7); competitive binding panel; baseline: vehicle: 70%

Set 4 — method: phase 2a trial; host: idiopathic pulmonary fibrosis patients; quantity: patients with haematuria
Structure (SMILES): CC(C)n1cnc(-c2ccc(F)cc2)c1-c1ncc(C(=O)Nc2ccc(N3CCN(C)CC3)cc2)[nH]1
all arms pooled, grade 5 emergent event: 0%
30 mg once daily, grade 4 emergent event: 0%
30 mg once daily, grade 2 emergent event: 0%
60 mg once daily, grade 3 emergent event: 0%
all arms pooled, grade 3 emergent event: 0%
all arms pooled, grade 2 emergent event: 0%

For quick reference, copied from above (set 4):
all arms pooled, grade 5 emergent event: 0%
30 mg once daily, grade 4 emergent event: 0%
30 mg once daily, grade 2 emergent event: 0%
60 mg once daily, grade 3 emergent event: 0%
